# Assay results from different studies.
# Lines come from different studies, so protocols differ. ± gives the spread as reported.
# Cell line: HCT-116
SMILES,test,conditions,how to read,endpoint,value
COC1CC(=O)N(C)C=CCCCC(=O)N(C)C(C(C)C)C(=O)N(C)C(CC(C)C)C(=O)OC(C(C)C)CC(C)C1 (stereo not shown),"RNA sequencing, item: G-protein coupled receptor signalling","20 µM, 12 h",direction not given,pathway activation z-score,2.11
CCCc1cc(OC)c2c(c1)OCO2,"cell growth or viability, MTT",72 h,,GI50,113 µM
Cc1cc(O)cc(-c2nc(Nc3cc(C(F)(F)F)cc(C(F)(F)F)c3)ncc2-c2ccnc(Cl)c2)c1,,72 h,,IC50,9.4 ± 1.2 µM
O=C(CN1C(=O)S/C(=C\c2ccccc2Br)C1=O)Nc1ccc(C(=O)Nc2ccc(F)cc2)cc1,MTT,,reference: IC50 Vero over IC50 HCT-116,selectivity index,16.9
CCCCCCCC(=O)SCCC=CC1CC(=O)NCc2nc(cs2)C2=NC(C)(CS2)C(=O)NC(C(C)C)C(=O)O1 (stereo not shown),cell growth or viability,,,GI50,> 10 µM
CC(=O)O[C@@]12CO[C@@H]1C[C@H](O)[C@@]1(C)C(=O)[C@H](O)C3=C(C)[C@@H](OC(=O)[C@H](OC(=O)CNC(=O)CCSSCCC(=O)NCCCCCC(=O)N[C@H](CCCNC(=N)N)C(=O)N[C@@H](CCCNC(=N)N)C(=O)N[C@@H](Cc4c(F)c(F)c(F)c(F)c4F)C(=O)N[C@@H](CCCNC(=N)N)C(=O)N[C@@H]4CSCCS(=O)(=O)CCSC[C@@H](C(=O)N[C@H](CCCNC(=N)N)C(=O)N[C@@H](CC5CCCCC5)C(=O)N[C@@H](CCCNC(=N)N)C(=O)N5Cc6ccccc6C5C(N)=O)NC(=O)[C@H](Cc5cccc6ccccc56)NC(=O)[C@H](Cc5ccc(O)cc5)NC4=O)[C@@H](NC(=O)OC(C)(C)C)c4ccccc4)C[C@@](O)([C@@H](OC(=O)c4ccccc4)[C@H]21)C3(C)C (stereo partly shown),,,,EC50,8.4 ± 1.5 µM
CC(C)C[C@H](NC(=O)[C@H](CC(C)C)NC(=O)[C@H](CC(=O)O)NC(=O)[C@H](CCCCN)NC(=O)[C@H](Cc1ccccc1)NC(=O)CN)C(=O)N[C@@H](CCCCN)C(=O)N[C@H]1CSCc2cccc(c2)CSC[C@@H](C(=O)N[C@@H](CC(C)C)C(=O)N[C@H](C(=O)N[C@@H](CCCCN)C(=O)N[C@H](C(=O)N[C@H](C(=O)N[C@@H](CC(C)C)C(=O)N[C@@H](Cc2ccccc2)C(N)=O)C(C)C)[C@@H](C)O)C(C)C)NC(=O)[C@H](CCCCN)NC(=O)[C@H](C)NC(=O)[C@H](C)NC1=O,"cell growth or viability, CCK-8",,,IC50,5.69 µM
COc1cc(C)c(OC)c(OC)c1OC,"cell growth or viability, MTT",72 h,,GI50,> 250 µM
[Ga+3].[O-]c1ccc(Br)c2cccnc12.[O-]c1ccc(Br)c2cccnc12.[O-]c1ccc(Br)c2cccnc12,"cell growth or viability, SRB","10 µM, 48 h",,inhibition,83.8%
COc1cc(C)cc2c1OCO2,cell growth or viability,72 h,,GI50,> 250 µM
OC[C@H]1[C@@H](O)[C@@H](O)CN1Cc1ccccc1,"cell growth or viability, MTS",72 h,,IC50,> 200 µM
CCCc1cc(OC)c2c(c1OC)OCO2,"cell growth or viability, MTT",72 h,,GI50,112 µM
"C=C(C)CC(OC)C(O)C(=O)NC(OC)C1CC(=C)C(C)(C)C(CC(O)C(C)C2Cc3c(C)c(O)cc(O)c3C(=O)O2)O1 (single isomer, unassigned; (+))",cell growth or viability,,,IC50,0.001 µM
